Measurements pooled from the literature.
Parts stem from different laboratories: compare values within a part only.

Block 1 — technique: aptamer microarray, sandwich; molecule type: DNA with 2'F-ANA; sample: in vitro; tested at: 200 nM; added: Cy3 exosite-II aptamer, 400 nM; reading: higher = stronger binding; measurement: mean fluorescence intensity; sequence: GGTTGGTGTGGTTGG
Target: Prothrombin, mature alpha-thrombin (F2, Homo sapiens, UniProt P00734)
Notes: whole 15-mer aptamer, many near background
2'F-ANA at 3 4 5 6 7 9 10 12 13 15: 54.5 a.u.
2'F-ANA at 1 2 6 7 8 9 10 11 12 15: 61.7 a.u.
2'F-ANA at 5 6 8 9 12 14: 48.7 a.u.
2'F-ANA at 2 5 6 7 8 13 14 15: 49.5 a.u.
2'F-ANA at 2 4 8 9 10 11: 81.7 a.u.
2'F-ANA at 1 5 6 8 9 14: 59.5 a.u.
2'F-ANA at 1 2 4 12 13 14 15: 58.7 a.u.
2'F-ANA at 1 2 3 4 6 7 12 14: 78.9 a.u.
2'F-ANA at 4 13 14 15: 168 a.u.
2'F-ANA at 1 2 7 8 9 10: 53.9 a.u.
2'F-ANA at 1 2 3 4 5 8 10 11 14: 48.4 a.u.
2'F-ANA at 1 4 5 7 10 11: 47.6 a.u.
2'F-ANA at 3 4 7 8 15: 913 a.u.
2'F-ANA at 4 9 10 11 14 15: 60.8 a.u.
2'F-ANA at 2 3 5 8 10 14: 49.9 a.u.
2'F-ANA at 2 3 5 6 7 8 10 11 12: 58.7 a.u.

Block 2 — technique: RNA Bind-n-Seq; molecule type: RNA; sample: in vitro; tested at: 365 nM; baseline: no-protein control; reading: higher = stronger binding; measurement: RBNS enrichment (R)
Target: RNA binding protein fox-1 homolog 2, RRM domain, GST-SBP tag (RBFOX2, Homo sapiens, UniProt O43251-10, residues 100-194)
Notes: natural RNA segment, single round, ends assumed
All sequences stand within: GGGAGUUCUACAGUCCGACGAUC … UGGAAUUCUCGGGUGCCAA
Construct (chain): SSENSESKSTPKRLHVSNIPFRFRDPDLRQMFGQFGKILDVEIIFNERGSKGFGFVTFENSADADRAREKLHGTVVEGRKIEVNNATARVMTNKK
ACAAGCAGAUUGGUUGAACCUUAUUUAAUGAGGAGUAACAGGCUGUUUUUAAGUGUUUGCCUGUGGCUACUUCCGUUCUAUAGCUCAAGAAUAUGCCAUUACAUCAUAGU: 0.237
ACCAGGCAGGAGCCCCGACCCCCCAGCAGCGGUGCCACUCUUCCAAGCCUCUUGGUGCACAAUAAACUAUUGCUGAAUCUUUGAACAGCUGGAAAGUAGUCUUGAGAGGC: 0.46
UGAAAGUUGGUAUUUAACAUUUAUUCAUUUUUAAAAUAUUUGGAAGGUCUGAGCUUGUGAAAAGAAAGUGGUUGGUCUGAGGUUGGAGGAAGCUGAAUGGAAUCUGACGG: 0.622
CCGCCACCCCCGCCGUGGGGCUCCGGAGGGGACCCAGCUCCUCUGAGCCAUACCGACCAUCGUCCAGCCCUCCUACGCAGAUGCUGUCACUGGCAGAGCACAGCCCACGG: 0.342
GGCUACUGUUUGUCCUGUGGCAGCCGGCUACAGUCUCGUCUGAGUGGCCUCAUCUGGACCCUUCCUGUUAUUAAUAAAACGCUUCUGGAGGCCAGAUCUGUGCUCAAGCC: 0.207
GUAAAUAAAUGUAUAUGUUUUAUAAUUCUGGAGAGACAUAAGGAGUCCUACCCGUUGAGGUUGGAGAGGGAAAAUAAAGAAGCUGCCACCUAACAGGAGUCACCCAGGAA: 0.736
GCCGUGUUACUAACUCUAGUAUGUUUCUGUGUCAAUCGCUGUGAAAUAAAGUCUGAAAACUUUAAAAGCAUUGCUUUUGUCCAUCCUCACCAGCGCGCUGGCCCGUUGGC: 0.28
GAAAAGAGGGAGAUGUUUUGUCCAGACCUACUAGACCCAACAGAAAAGGUUUUUGUAUUAGAAUCUGUUUCCUUAAAAAUUGAUUUGACUCCUGUUCUUAAACACAAGUG: 0.291
UUAUGAAGUAUGGAAAAGAAGCCCUUACAUAUUCCAGAUGUGUGCAGCAGGGGGCACUGUCCCAGCCCUCUCUGCCCCAGCCAGGCACAGUGGCCUCUAGAGGGUGGUCC: 0.412
AUAGGUCAGGGGCUAGGUGUUGAACUUAGUUAAUGGAAGACUGAGAGCAGAACAGGUUUGUCAUCUCCGCAAGGCCAGAAAGUGAUCACAAAAAGAGGCAGAUGAUAGAC: 0.379
UAGUUUGUUUCCUUGUUUGAGAGGUGUGCAUGCGACCGUGGCUUUUCCCAAAGUUUCUGACUUUGUGGUUUACCCCCUUCACCUUCCAGGGACGCAGUUGUUACGAGGUU: 14.2
AUGAUGAAACAUUCAUUUUUACCUUGUGGAUGCUAGUGCUGUAGAGUUCACUGUUGUACACAGUCUGUUUUCUAUUUGUUAAGAAAAACUACAGCAUCAUUGCAUAAUUC: 1.01

Block 3 — technique: competition protein-binding microarray; molecule type: double-stranded DNA, one strand shown; sample: in vitro; tested at: 2 µM; added: Pho4 competitor, 0.05 µM; reading: higher = stronger binding; measurement: fluorescence intensity; all sequences stand within: … GTCTTGATTCGCTTGACGCTGCTG
Target: Centromere-binding protein 1, full length, His-tagged (CBF1, Saccharomyces cerevisiae, UniProt P17106, residues 1-351)
Chain of UniProt P17106 (whole entry, looked up): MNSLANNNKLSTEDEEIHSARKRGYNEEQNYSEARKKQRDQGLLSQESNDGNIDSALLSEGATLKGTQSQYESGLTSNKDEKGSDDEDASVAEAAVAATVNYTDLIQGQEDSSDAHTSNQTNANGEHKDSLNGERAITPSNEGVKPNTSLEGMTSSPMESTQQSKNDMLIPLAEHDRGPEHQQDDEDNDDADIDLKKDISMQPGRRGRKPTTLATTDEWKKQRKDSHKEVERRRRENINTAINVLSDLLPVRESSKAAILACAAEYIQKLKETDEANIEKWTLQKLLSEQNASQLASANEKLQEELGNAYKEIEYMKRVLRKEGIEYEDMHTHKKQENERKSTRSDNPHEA
Notes: whole 60-bp probe, lowest competitor level
AAAGCGGTAATTTGTCACGACACTTCACATATCTAT: 326 a.u.
GTCTTGTCTCATTGCGGCGTGGGTGTCCCCACTTCA: 81.7 a.u.
GTCTTGTCTCATTGACGTGTGGGTGTCCCCACTTCA: 77.3 a.u.
ATTTCTCAATACCATCACGTGCGATCTAAGAAGATG: 4650 a.u.
TGAATGTAGGTCCATCACGGGCTGCATTTAGTACAA: 124 a.u.
AGGAACGCTTAAAACATCGTGGAGTGAGTGTGGTAA: 68.5 a.u.
TCTCGAAATTTGTCTTTCGTGATGGTTGCACAGTCT: 71.5 a.u.
AATTATTTAAGCTCACACAGGCAGAAATCAAGGGAT: 89.2 a.u.
GGTGTTGGAACTACCCACGTGGTGATTCTGGTATTT: 1110 a.u.
TGGTGGTAATTTTGGAACGTGCAAAACCTCTGGTAT: 126 a.u.
GGTGGTACCTGTGTTAACGTGGGTAGTGTTCCGAAG: 95.4 a.u.
GTTCAATATACATCCTACGTGCAAAACGAACAATAG: 103 a.u.
CTAACGAAGGTTTTTCACGTGTTCTACAAGCCAAGT: 1440 a.u.
CTTCTTGTCACCGCTCCCGTGAACGGCCCATGCTAC: 105 a.u.
CGTCCTAGCGATTGAGGAGTGGGTGCCATGAGGAAG: 77.4 a.u.
AACCTGGAAGTGGGCCACATGTTGTAAAAGGAAGCT: 93.1 a.u.
AGGAACCTCAATCGGCACGGCCAACTCGCAAGCGCA: 59.5 a.u.
AAATCCGTCCTGAAACCCGTGCTAAAATCCGTTTAC: 135 a.u.
CTTTCCCGATCTTGGCAGGTGGGTGTAGCACATTTG: 76.2 a.u.
CGGGGTTAAGTTTGTGCAGTGGGTGGCTTGCAGCAG: 59.3 a.u.
TAGCAGGGGGATGAACATGTGAACATGTTGCAACAA: 280 a.u.
GATCAGTTTGAAAGAAACGTGAAAATTATTTTTTTC: 248 a.u.
ACCAGCGTTGGACGCGTCGTGCGGATTCGTTCTTGT: 58.8 a.u.
GCTTCCCTATTTTTGCACGTTTTGGTTGCTCCCAAG: 139 a.u.
CGTCCTAGTGATTTTCACGTGCTTTCCATGAGGAAG: 1630 a.u.

Block 4 — technique: protein binding microarray; molecule type: double-stranded DNA, one strand shown; sample: in vitro; tested at: not given; baseline: not given; reading: higher = stronger binding; measurement: E-score
Target: Histone acetyltransferase KAT6A, winged helix 1, GST fusion (KAT6A, Homo sapiens, UniProt Q92794, residues 1-85)
Notes: 8-mer, flanks averaged, mean of 2 arrays, mostly near background
Target sequence (chain): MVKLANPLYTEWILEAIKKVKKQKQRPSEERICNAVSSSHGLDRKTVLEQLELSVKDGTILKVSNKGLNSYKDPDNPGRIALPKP
GGATGGGA: -0.274
CAGCTTGG: -0.34
CGCACTTC: 0.119
ATGCACCA: -0.186
ACATAATG: -0.0366
TACATTCA: -0.173
AGTTTTTG: -0.242
GAGCATGC: -0.0879
TGATGCAA: -0.12
CGAGGATA: -0.209
CACGACTC: -0.26
GAAGAATC: -0.0289
CTTCTTCC: -0.034
AGGGAGAG: -0.152
GATGCCCA: -0.145
GTTTGAGA: -0.176
ATTGCAAT: -0.0109
GCGAACGC: 0.321
GACATGTC: -0.00443
AGCTTACG: 0.0382
GAATTGGA: -0.152
AAAACGCC: 0.104
ACTGTGCG: 0.173
CCCGTCGA: 0.286
TGCATACA: -0.208

Block 5 — technique: RNA Bind-n-Seq; molecule type: RNA; sample: in vitro; tested at: not given; baseline: input RNA pool; reading: higher = stronger binding; measurement: bound/input enrichment
Target: RING finger protein unkempt homolog, zinc fingers 1-6, GST-SBP tag (UNK, Homo sapiens, UniProt Q9C0B0, residues 30-357)
Chain of UniProt Q9C0B0 (30-357, looked up): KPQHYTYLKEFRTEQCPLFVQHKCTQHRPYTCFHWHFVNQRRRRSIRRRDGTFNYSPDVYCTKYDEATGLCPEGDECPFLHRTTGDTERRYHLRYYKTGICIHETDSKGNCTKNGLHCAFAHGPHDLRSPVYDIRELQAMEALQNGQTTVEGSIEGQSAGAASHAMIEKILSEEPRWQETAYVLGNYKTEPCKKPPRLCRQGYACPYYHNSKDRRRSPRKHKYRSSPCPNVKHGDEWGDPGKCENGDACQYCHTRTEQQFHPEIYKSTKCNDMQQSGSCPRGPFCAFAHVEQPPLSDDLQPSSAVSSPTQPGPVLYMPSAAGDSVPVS
Notes: RNA with constant flanks, human and mouse sites, ends assumed
All sequences stand within: GGGAGUUCUACAGUCCGACGAUC … CAACAGAGGAUUGAGCAUCA
AAACUUCAAACUACUCUUACUUGUAAUUCCAUGGUACUUUUUGAUCAUAUGGGAUGUCUGAAGAAAUAUGAAACUGUGCAAGACAUUCUGAAAGAAUUCUUUGAUUUACGAUUAAGUUAU: 0.172 ratio
AAUUGUGGCGAAUCAGAAGGAUUGUCAUGGCAUGGUAGAAUGUAUAUUGCUUGUCUCUCUAUAGAAUAAUUUAAAAAUGACCACACCGAACAAGACACCUCCUGGUGCUGAUCCUAAGCA: 5.16 ratio
CGAAUGUUUGCUUACUUCCGACGCAAUGCAGCCACGUGGAAGAAUGCAGUGCGUCAUAAUCUUAGUCUCCACAAGUGUUUUGUGCGAGUAGAGAACGUUAAAGGGGCAGUAUGGACAGUG: 1.19 ratio
UGGCGGUGGCCGCGGGGGCUGCGGUGGCGGCGGGCACAGCCCCUCUCAAACUGCCCCGUGUCUCCUACUACGGGGUGCCCAGCCUGGCCACCCUCAUCCCCGGCAUCCAGCAGAUGCCCU: 0.124 ratio
UCUCGGGAACAGCUUGCUAUUGCAGAGUUUGCAAGAUCUCUGCUUGUGAUUCCUAAUACACUGGCAGUGAAUGCUGCCCAGGACUCCACCGACCUGGUUGCCAAGUUAAGAGCUUUUCAC: 0.118 ratio
AUUGUGGAAGAAGAUGAUGAAAUAAAUCGAGAUUGGUUGGAUUGGACCUAUUCAGCAGCUACAUUUUCUGUUUUUCUCAGUAUCCUCUACUUCUACUCCUCCCUGAGCAGAUUCCUCAUG: 0.114 ratio
AUCUUUGGCUAGUGCUUUUCAAUUAUCUGAAGAUGGAGACUCAAUUCCUUAUACUAUUAAUAGGUACUUGCGAGAUUACCAAAGGGAGGGGGCUCAGUUCCUCUACAGACACUACAUAGA: 1.03 ratio
CAGCUGAUCCGAAGGGAGUUUCAGACCAGUGUAAUCAGCAGAGACAUUGAUACUGCUGCCAAAUUCAUUGGUGCAGGUGCUGCAACAGUAGGAGUUGCUGGUUCUGGUGCUGGUAUUGGA: 0.13 ratio
ACGCAUGGAAUCUUCUCUGGCCCUGCCAUUUCUCGCAUCAACAAUGCAUGCUUUGAAGCAGUAGUAGUUACCAAUACCAUACCUCAGGAAGACAAGAUGAAACACUGCUCCAAAAUACAG: 0.224 ratio
CUGUGGGCAUCCCUGCCUGCCUCUUGGGUACAGAGGCCUAGGGCAACUGUUCCUUUUUUUUUUUUUUUUUUAACCUAGUUCAAUGUUUCUUCUUUUCUUUGAGAUAAACUUAUUAAAAAA: 4.5 ratio
CCAGACAAGAUUGACUAUGCCUCGCUAGACCCACUCAACAUCAAGCAGAACAACAAGCAGGCCUUCGAUGGCUUCGCGGCUCUGGGCGUGUCGCGGCUGCUGGAGCCCGCGGACAUGGUG: 0.205 ratio

For quick reference, copied from above (block 1):
2'F-ANA at 2 5 6 7 8 13 14 15: 49.5 a.u.
2'F-ANA at 1 5 6 8 9 14: 59.5 a.u.
2'F-ANA at 2 3 5 6 7 8 10 11 12: 58.7 a.u.
2'F-ANA at 1 2 3 4 6 7 12 14: 78.9 a.u.
2'F-ANA at 3 4 5 6 7 9 10 12 13 15: 54.5 a.u.
2'F-ANA at 4 9 10 11 14 15: 60.8 a.u.
2'F-ANA at 2 4 8 9 10 11: 81.7 a.u.
2'F-ANA at 1 4 5 7 10 11: 47.6 a.u.
